Experimental data collected from several papers.
Numbered parts are unrelated; each lists some results of a single study. Several values in a cell are separate wells, animals, samples, runs or records.
UniProt O14626, sequence (whole entry, looked up): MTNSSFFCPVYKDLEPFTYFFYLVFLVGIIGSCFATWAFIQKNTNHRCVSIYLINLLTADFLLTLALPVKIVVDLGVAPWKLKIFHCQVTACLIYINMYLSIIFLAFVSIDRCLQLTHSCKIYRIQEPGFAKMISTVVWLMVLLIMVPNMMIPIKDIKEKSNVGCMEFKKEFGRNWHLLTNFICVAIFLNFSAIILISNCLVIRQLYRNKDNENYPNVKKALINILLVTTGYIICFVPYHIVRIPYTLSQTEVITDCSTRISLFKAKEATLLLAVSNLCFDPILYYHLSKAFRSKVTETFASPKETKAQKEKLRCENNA
UniProt O14965, sequence (whole entry, looked up): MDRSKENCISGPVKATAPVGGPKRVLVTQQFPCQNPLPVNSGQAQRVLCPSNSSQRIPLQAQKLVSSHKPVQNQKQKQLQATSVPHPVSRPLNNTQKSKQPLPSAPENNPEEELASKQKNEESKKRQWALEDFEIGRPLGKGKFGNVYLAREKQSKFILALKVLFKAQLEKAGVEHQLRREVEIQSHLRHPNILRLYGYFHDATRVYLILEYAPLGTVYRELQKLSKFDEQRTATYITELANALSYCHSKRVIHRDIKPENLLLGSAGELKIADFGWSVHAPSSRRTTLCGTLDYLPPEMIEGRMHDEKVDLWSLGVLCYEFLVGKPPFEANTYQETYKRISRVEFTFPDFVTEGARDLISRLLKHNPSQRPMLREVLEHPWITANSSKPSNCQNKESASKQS
UniProt P45984, sequence (whole entry, looked up): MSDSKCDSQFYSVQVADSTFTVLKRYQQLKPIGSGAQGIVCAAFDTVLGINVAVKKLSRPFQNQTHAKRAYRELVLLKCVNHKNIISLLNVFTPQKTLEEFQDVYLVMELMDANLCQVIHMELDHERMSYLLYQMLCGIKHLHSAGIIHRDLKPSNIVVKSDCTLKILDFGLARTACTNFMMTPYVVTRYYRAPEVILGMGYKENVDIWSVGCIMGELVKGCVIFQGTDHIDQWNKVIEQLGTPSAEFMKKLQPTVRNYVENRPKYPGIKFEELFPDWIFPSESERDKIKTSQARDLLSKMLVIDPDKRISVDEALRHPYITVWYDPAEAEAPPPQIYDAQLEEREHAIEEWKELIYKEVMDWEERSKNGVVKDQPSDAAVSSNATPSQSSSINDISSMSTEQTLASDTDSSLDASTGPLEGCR
UniProt O95747, sequence (whole entry, looked up): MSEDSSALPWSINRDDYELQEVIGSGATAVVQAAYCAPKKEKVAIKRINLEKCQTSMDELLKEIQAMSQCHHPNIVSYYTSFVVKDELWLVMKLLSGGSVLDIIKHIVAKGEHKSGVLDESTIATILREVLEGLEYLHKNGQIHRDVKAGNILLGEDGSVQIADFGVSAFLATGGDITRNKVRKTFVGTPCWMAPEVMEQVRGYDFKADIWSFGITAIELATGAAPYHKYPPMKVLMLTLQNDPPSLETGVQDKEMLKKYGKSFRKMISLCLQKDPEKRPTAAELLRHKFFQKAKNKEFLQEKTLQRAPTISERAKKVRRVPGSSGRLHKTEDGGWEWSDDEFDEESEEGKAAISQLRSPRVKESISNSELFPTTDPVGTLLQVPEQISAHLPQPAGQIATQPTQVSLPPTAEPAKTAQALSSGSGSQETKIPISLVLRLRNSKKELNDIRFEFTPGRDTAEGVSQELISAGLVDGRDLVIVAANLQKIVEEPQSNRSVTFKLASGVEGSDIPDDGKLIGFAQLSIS
UniProt P51955, sequence (whole entry, looked up): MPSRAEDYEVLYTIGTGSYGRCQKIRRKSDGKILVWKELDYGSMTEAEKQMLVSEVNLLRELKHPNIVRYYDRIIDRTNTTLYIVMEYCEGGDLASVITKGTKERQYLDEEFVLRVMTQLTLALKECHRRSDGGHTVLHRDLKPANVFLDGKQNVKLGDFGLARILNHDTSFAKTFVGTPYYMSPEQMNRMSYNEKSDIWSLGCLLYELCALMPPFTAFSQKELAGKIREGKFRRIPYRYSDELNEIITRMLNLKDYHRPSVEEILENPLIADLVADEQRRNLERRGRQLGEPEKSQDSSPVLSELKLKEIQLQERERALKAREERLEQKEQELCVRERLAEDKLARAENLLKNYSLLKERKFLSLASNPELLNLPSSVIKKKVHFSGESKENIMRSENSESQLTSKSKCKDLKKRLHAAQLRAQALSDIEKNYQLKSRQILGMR
UniProt P08631, sequence (whole entry, looked up): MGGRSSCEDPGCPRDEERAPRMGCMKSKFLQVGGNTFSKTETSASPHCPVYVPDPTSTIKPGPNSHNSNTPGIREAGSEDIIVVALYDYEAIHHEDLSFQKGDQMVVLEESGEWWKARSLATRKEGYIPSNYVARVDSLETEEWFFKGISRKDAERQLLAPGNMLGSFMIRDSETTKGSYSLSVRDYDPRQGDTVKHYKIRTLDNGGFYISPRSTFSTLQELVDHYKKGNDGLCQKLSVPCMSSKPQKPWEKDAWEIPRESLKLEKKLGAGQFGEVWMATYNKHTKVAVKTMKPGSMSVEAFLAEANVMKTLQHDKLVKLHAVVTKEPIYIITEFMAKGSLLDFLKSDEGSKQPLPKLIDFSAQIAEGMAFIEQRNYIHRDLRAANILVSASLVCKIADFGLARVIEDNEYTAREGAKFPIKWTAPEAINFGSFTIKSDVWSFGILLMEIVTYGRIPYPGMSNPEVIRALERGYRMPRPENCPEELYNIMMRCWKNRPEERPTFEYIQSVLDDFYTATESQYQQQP
UniProt Q13976, sequence (whole entry, looked up): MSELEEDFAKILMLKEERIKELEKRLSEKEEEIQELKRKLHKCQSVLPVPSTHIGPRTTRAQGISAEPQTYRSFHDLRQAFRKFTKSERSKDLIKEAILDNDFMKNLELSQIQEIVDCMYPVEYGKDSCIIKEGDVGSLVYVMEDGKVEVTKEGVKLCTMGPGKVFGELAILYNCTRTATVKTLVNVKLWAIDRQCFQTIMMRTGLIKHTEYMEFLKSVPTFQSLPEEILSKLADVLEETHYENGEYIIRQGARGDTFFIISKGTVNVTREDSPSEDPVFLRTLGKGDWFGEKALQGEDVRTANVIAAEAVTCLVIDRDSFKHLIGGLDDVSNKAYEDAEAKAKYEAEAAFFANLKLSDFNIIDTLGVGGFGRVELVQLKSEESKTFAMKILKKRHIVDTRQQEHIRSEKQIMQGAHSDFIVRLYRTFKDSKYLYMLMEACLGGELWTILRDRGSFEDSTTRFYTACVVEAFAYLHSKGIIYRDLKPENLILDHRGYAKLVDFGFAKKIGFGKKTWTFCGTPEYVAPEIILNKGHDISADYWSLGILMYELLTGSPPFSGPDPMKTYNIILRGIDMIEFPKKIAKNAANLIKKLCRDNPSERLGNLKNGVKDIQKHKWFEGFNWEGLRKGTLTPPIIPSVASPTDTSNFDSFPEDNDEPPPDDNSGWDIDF
UniProt P42680, sequence (whole entry, looked up): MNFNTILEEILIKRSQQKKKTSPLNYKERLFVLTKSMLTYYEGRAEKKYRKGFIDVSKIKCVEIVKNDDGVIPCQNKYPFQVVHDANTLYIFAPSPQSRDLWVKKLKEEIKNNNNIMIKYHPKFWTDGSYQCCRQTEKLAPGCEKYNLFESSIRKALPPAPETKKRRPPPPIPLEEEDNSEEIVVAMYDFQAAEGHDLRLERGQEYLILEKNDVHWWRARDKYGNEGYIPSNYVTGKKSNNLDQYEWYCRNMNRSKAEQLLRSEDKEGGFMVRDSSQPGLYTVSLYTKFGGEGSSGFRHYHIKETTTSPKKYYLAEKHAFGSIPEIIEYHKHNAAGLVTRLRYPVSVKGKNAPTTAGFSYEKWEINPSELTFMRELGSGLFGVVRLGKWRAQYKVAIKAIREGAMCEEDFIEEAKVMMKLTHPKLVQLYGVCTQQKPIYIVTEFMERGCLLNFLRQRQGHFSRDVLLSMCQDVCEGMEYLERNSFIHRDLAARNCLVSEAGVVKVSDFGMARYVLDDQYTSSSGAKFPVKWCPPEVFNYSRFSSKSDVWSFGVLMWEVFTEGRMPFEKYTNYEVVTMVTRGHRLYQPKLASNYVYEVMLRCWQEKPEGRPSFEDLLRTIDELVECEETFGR
UniProt Q96RR4, sequence (whole entry, looked up): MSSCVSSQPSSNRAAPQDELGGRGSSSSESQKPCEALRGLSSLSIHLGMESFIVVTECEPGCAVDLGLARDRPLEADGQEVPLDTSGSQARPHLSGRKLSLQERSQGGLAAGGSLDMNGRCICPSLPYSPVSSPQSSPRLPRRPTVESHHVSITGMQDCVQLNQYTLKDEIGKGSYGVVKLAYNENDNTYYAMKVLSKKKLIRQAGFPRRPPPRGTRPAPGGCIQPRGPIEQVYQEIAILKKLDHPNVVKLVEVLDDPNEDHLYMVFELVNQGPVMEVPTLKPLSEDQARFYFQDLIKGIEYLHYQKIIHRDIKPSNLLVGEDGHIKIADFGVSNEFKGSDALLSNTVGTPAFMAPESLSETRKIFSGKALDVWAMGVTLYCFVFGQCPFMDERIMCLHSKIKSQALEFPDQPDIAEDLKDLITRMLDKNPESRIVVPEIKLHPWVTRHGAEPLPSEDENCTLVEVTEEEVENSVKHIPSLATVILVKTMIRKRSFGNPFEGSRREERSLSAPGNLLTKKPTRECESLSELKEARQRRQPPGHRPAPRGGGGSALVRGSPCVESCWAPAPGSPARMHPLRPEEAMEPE

Study 1
Target: Translocator protein (Tspo, Rattus norvegicus, UniProt P16257)
UniProt P16257, sequence (whole entry, looked up): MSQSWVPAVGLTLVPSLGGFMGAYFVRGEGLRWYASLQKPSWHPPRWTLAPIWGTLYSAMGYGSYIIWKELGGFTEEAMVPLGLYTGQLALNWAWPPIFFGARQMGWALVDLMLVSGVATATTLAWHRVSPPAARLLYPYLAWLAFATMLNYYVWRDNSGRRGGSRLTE
Effect on: radioligand binding
Technique: radioligand displacement
Concentration: 10 µM
| Structure (SMILES) | inhibition [%] |
| --- | --- |
| CC(=O)C1=C(C)N(c2cccc(C(F)(F)F)c2)C(=O)N[C@@H]1c1ccc(C#N)nc1 | 20 |
| COc1nc2ccc([C@@](O)(c3ccccc3)C3CCN(C(C)=O)CC3)cc2c(Cl)c1Cc1ccc(-n2cccn2)cc1 | 35.6 |
| CC(=O)c1c(NS(C)(=O)=O)c2cc(-c3ccc(Cl)cc3)c(-c3ccc(Cl)cc3Cl)nc2n(C)c1=O | 36.9 |
| CCCCN(CCCC)C(=O)CN1C[C@@H](c2cc(OC)c3c(c2)OCO3)[C@H](C(=O)O)[C@H]1CC(C)(C)CCC | 22.9 |
| CC1=C(C#N)C(c2ccc3[nH]nc(C)c3c2)C(C#N)=C(C)N1 | -12.3 |
| O=C(c1ccc(F)cc1)N1CC(COc2ccc(Br)cc2)(C(=O)O)C1 | 16.3 |

Study 2
Cell line: mouse MPNST tumor cells
Technique: high-content nuclear imaging
Measured: cell number
Concentration: 10 µM
Time: 12 h
Setting: mean of 2 replicates
Baseline: plate mean
Reading: higher = more cells
| Compound | nuclei count |
| --- | --- |
| CC(C)S(=O)(=O)c1ccc2nccc(Nc3ccc4scnc4c3)c2c1 | 2.71 z-score |
| COc1ccccc1OCC(O)COC(N)=O (centres unmarked) | 0.323 z-score and 1.28 z-score |
| CCCc1nc(C(C)(C)O)c(C(=O)O)n1Cc1ccc(-c2ccccc2-c2nnn[nH]2)cc1 | -0.573 z-score and 0.595 z-score |
| C[C@H]1C[C@H]2[C@@H]3CCC4=CC(=O)C=C[C@]4(C)[C@@]3(F)[C@@H](O)C[C@]2(C)[C@@]1(O)C(=O)CO | 2.78 z-score |
| CCN(CC)Cc1cc(Nc2ccnc3cc(Cl)ccc23)ccc1O | 0.258 z-score and -5.37 z-score |

Study 3
SMILES: CCN(c1nc(N)c(C(=O)N=C(N)N)nc1Cl)C(C)C
Effect on: β-arrestin recruitment
Action: agonist
Technique: PRESTO-Tango
Concentration: 10 µM
Baseline: untreated
| target | fold over basal |
| --- | --- |
| Metabotropic glutamate receptor 8 (GRM8, Homo sapiens, UniProt O00222) | 0.74 fold |
| G-protein coupled receptor family C group 6 member A (GPRC6A, Homo sapiens, UniProt Q5T6X5) | 0.91 fold |
| Alpha-1D adrenergic receptor (ADRA1D, Homo sapiens, UniProt P25100) | 1.09 |
| G-protein coupled receptor 171 (GPR171, Homo sapiens, UniProt O14626) | 0.88 |

Study 4
Structure (SMILES): COc1ccc2[nH]c3c4[nH]c5ccc(OC)cc5c4c4c(c3c2c1)C(=O)NC4=O
Effect on: binding
Technique: competition with immobilised ligand
Concentration: 1 µM
| target | remaining binding [%] |
| --- | --- |
| Aurora kinase A (AURKA, Homo sapiens, UniProt O14965) | 57 |
| Ephrin type-A receptor 3 (EPHA3, Homo sapiens, UniProt P29320) | 86 |
| Tyrosine-protein kinase Tec (TEC, Homo sapiens, UniProt P42680) | 88 |
| Tyrosine-protein kinase HCK (HCK, Homo sapiens, UniProt P08631) | 74 |
| Serine/threonine-protein kinase TAO1 (TAOK1, Homo sapiens, UniProt Q7L7X3) | 100 |
| Cyclin-dependent kinase 7 (CDK7, Homo sapiens, UniProt P50613) | 56 |

Study 5
SMILES: CCCCc1c(-c2ccc(OC)cc2)[nH]c2nccnc12
Effect on: enzyme activity
Action: inhibitor
Concentration: 0.5 µM
Baseline: control
| target | remaining activity [%] |
| --- | --- |
| Inhibitor of nuclear factor kappa-B kinase subunit beta (IKBKB, Homo sapiens, UniProt O14920) | 102 |
| Death-associated protein kinase 1 (DAPK1, Homo sapiens, UniProt P53355) | 90.6 |
| TGF-beta receptor type-2 (TGFBR2, Homo sapiens, UniProt P37173) | 74.8 |
| STE20/SPS1-related proline-alanine-rich protein kinase (STK39, Homo sapiens, UniProt Q9UEW8) | 77.8 |
| Calcium/calmodulin-dependent protein kinase type II subunit delta (CAMK2D, Homo sapiens, UniProt Q13557) | 93.3 |
| Cyclin-dependent kinase 5, with p25 (CDK5, Homo sapiens, UniProt Q00535) | 41.3 |
| Mitogen-activated protein kinase 9 (MAPK9, Homo sapiens, UniProt P45984) | 84.8 |
| Mitogen-activated protein kinase kinase kinase 3 (MAP3K3, Homo sapiens, UniProt Q99759) | 99.8 |
| Serine/threonine-protein kinase 10 (STK10, Homo sapiens, UniProt O94804) | 95.4 |
| Tyrosine-protein kinase Lyn, isoform B (LYN, Homo sapiens, UniProt P07948) | 108 |
| cAMP-dependent protein kinase catalytic subunit alpha (PRKACA, Homo sapiens, UniProt P17612) | 96.6 |
| Serine/threonine-protein kinase Chk2 (CHEK2, Homo sapiens, UniProt O96017) | 72.8 |
| cGMP-dependent protein kinase 1, isoform beta (PRKG1, Homo sapiens, UniProt Q13976) | 102 |
| Cyclin-dependent kinase 4, with cyclin D1 (CDK4, Homo sapiens, UniProt P11802) | 60.4 |
| Inhibitor of nuclear factor kappa-B kinase subunit epsilon (IKBKE, Homo sapiens, UniProt Q14164) | 100 |
| Calcium/calmodulin-dependent protein kinase kinase 2 (CAMKK2, Homo sapiens, UniProt Q96RR4) | 79.2 |
| Protein kinase C beta type, isoform beta-I (PRKCB, Homo sapiens, UniProt P05771) | 99.4 |
| Serine/threonine-protein kinase Nek2 (NEK2, Homo sapiens, UniProt P51955) | 115 |
| G protein-coupled receptor kinase 3 (GRK3, Homo sapiens, UniProt P35626) | 95.6 |
| Serine/threonine-protein kinase STK11 (STK11, Homo sapiens, UniProt Q15831) | 74.5 |
| TGF-beta receptor type-1 (TGFBR1, Homo sapiens, UniProt P36897) | 95 |
| Serine/threonine-protein kinase OSR1 (OXSR1, Homo sapiens, UniProt O95747) | 102 |
| Protein kinase C alpha type (PRKCA, Homo sapiens, UniProt P17252) | 92.7 |

Study 6
Species: mouse
Matrix: microsomes or S9
Concentration: 2 µM
Time: 0.5 h
| SMILES | remaining compound [%] |
| --- | --- |
| CCN(CC)C(=O)Cc1c(/C=C/c2ccccc2)[nH]c2ccccc12 | 0.0363 |
| CCCC(=O)c1cnc2c(OCC)nccc2c1N[C@H](C)c1ccccc1 | 4.42 |
| Cc1ccc(S(=O)(=O)Nc2cccc(NS(=O)(=O)c3ccc(C)cc3)c2-n2ccc3cccnc32)cc1 | 0.107 |
| CCc1c(OCC(=O)Nc2cc(OC)c(OC)c(OC)c2)c(=O)ccn1CCO | 84.7 |
| CCc1ccc(NC(=O)CN(CCc2ccccc2)S(=O)(=O)c2ccc(C)cc2)cc1 | 0.019 |
| Cc1cc(C)c(S(=O)(=O)N[C@H](CO)C(C)C)c(C)c1 | < 1 |

Some of these lines once more (study 5):
| target | remaining activity [%] |
| --- | --- |
| Cyclin-dependent kinase 5, with p25 (CDK5, Homo sapiens, UniProt Q00535) | 41.3 |
| Serine/threonine-protein kinase Chk2 (CHEK2, Homo sapiens, UniProt O96017) | 72.8 |
| G protein-coupled receptor kinase 3 (GRK3, Homo sapiens, UniProt P35626) | 95.6 |
| TGF-beta receptor type-1 (TGFBR1, Homo sapiens, UniProt P36897) | 95 |
| TGF-beta receptor type-2 (TGFBR2, Homo sapiens, UniProt P37173) | 74.8 |
